# Results pooled from the literature.
# Compare with care: the assays were run in different laboratories.
# Read-out: metabolic stability
# Species: human
SMILES,system,setting,half-life
N=C(c1ccc([N+](=O)[O-])o1)N1CCC(NC(=O)c2cc(-c3ccc(F)cc3F)on2)(c2nc3ccccc3[nH]2)CC1,liver microsomes,1 µM,3.8 min
Cc1c(Cc2cc(F)cc(OC(C)(C)C(=O)O)c2)c2ccc(C(=O)N[C@@H](C)c3cc(F)cc(C(C)(C)C)c3)cc2n1CC1CCC1,liver microsomes,,28 min
CN(C)C(=O)c1cccc(N2Cc3cn(Cc4ccc(F)c(Cl)c4)nc3C2)c1,liver microsomes,,31 min
O=C(N1CCCCC1)C12CC(c3ccccc3)(C1)C2(F)F,liver microsomes,"2 µM, pH 7.4",85.7 min
C=C(NC(=O)c1csc(-c2nc3c(cc2O)-c2nc(cs2)C(=O)NC(C(C)O)C(=O)NC(=C(C)OC)c2nc(cs2)C(=O)NC2c4nc(cs4)C(=O)NC(COC(=O)c4c5c6c(cccc6n4O)COC(=O)C(OC4CC(C)(O)C(N(C)C)C(C)O4)C2OC5)c2nc-3cs2)n1)C(N)=O (stereo not drawn),liver microsomes,2 µM,128 min
CN(C)C(=O)c1ccnc(N2Cc3cn(Cc4ccc(F)cc4)nc3C2)n1,liver microsomes,,748 min
CCn1c(C)c(Cc2ccc(Cl)c(O[C@H](C)C(=O)O)c2)c2ccc(C(=O)N[C@@H](C)c3ccc(C(C)(C)C)cc3)cc21,liver microsomes,,> 60 min
CN1CCN(C(=O)c2ccnc(N3Cc4cnn(Cc5ccc(F)cc5)c4C3)n2)CC1,liver microsomes,,14 min
Cn1cnc([N+](=O)[O-])c1Sc1ccccc1C(=O)NCCC(N)=O,blood,"1 µM, whole blood",59.9 min
CN(C)C(=O)c1ccnc(N2Cc3cn(Cc4ccc(F)c(Cl)c4)nc3C2)n1,liver microsomes,,135 min
Cc1ncsc1-c1ccc([C@@H]2CCCCCCNC(=O)C[C@@H]3N=C(c4ccc(cc4)OCCCCCC(=O)N[C@@H](C(C)(C)C)C(=O)N4C[C@H](O)C[C@H]4C(=O)N2)c2c(sc(C)c2C)-n2c(C)nnc23)cc1,liver microsomes,1 µM,2.7 min
C=CC(=O)Nc1cccc(Cn2ncc3cnc(Nc4cnn(CCOC)c4)nc32)c1,hepatocytes,,61.2 min
N#Cc1cccc(N2Cc3cn(Cc4ccc(F)cc4)nc3C2)c1,liver microsomes,,42 min
O=C(Nc1cc(-c2ccnc3[nH]ccc23)c(Cl)cn1)[C@H]1CCC[C@@H](NC(=O)C(F)(F)F)C1,liver microsomes,,56.4 min
Cc1c(Cc2cc(Cl)cc(OC(C)C(=O)O)c2)c2ccc(C(=O)NC(C)c3ccc(C(C)(C)C)cc3)cc2n1CC1CC1 (stereo not drawn),liver microsomes,,43 min
CC(C)C[C@H](NC(=O)[C@@H]1CCCN1C(=O)[C@@H]1CCCN1C(=O)[C@H](CC(N)=O)NC(=O)[C@@H](N)Cc1ccc(Cl)c(Cl)c1)C(=O)N[C@@H](Cc1c[nH]cn1)C(=O)N[C@@H](CO)C(=O)N[C@H](C(=O)N[C@@H](C)C(=O)O)[C@@H](C)OP(=O)(O)O,liver microsomes,"1 µM, pH 7.4",15 min
O=C(c1ccnc(N2Cc3cnn(Cc4ccc(F)cc4)c3C2)n1)N1CCOCC1,liver microsomes,,59 min
O=C(O)Cc1ccccc1Nc1c(Cl)cccc1Cl,hepatocytes,1 µM,267 min
Cc1c(Cc2cccc(OC(C)(C)C(=O)O)c2)c2ccc(C(=O)N[C@@H](C)c3ccc(C(C)(C)C)cc3)cc2n1CC1CCC1,liver microsomes,,> 60 min
C/C(N)=N/C(=N\S(=O)(=O)c1ccc(C(F)(F)F)cc1)N1C[C@H](c2ccccc2)C(c2ccc(Cl)cc2)=N1,liver microsomes,,110 min
Nc1nc(SCc2ccc(Cl)cc2)nn1S(=O)(=O)c1ccc2c(c1)CCO2,liver microsomes,"1 µM, pH 7.4",3.2 min
O=C(NC1CCCCC1)c1cccc(N2Cc3cn(Cc4ccc(F)cc4)nc3C2)c1,liver microsomes,,> 1000 min
Cc1c(Cc2ccc(Cl)c(O[C@H](C)C(=O)O)c2)c2ccc(C(=O)N[C@@H](C)c3ccc(C(C)(C)C)cc3)cc2n1CC(C)C,liver microsomes,,> 60 min
CN(C)C(=O)c1ccnc(N2Cc3cn(Cc4ccc(F)cc4Cl)nc3C2)n1,liver microsomes,,102 min
Cc1c(Cc2ccc(Cl)c(O[C@@H](C)C(=O)O)c2)c2ccc(C(=O)N[C@@H](C)c3ccc(C(C)(C)C)cc3)cc2n1CC1CCC1,liver microsomes,,48 min
O=C(N1CCCCC1)C12CC(c3ccccc3)(C1)C2(Cl)Cl,liver microsomes,"2 µM, pH 7.4",25.7 min
Cc1c(Cc2ccc(Cl)c(OC(C)C(=O)O)c2)c2ccc(C(=O)NC(C)c3ccc(C(C)(C)C)cc3)cc2n1CC1CC1 (stereo not drawn),liver microsomes,,> 60 min
O=c1c(-c2cnn(-c3ccc(Cl)cc3)c2)c(C(F)(F)F)oc2c(O)c(O)ccc12,liver microsomes,,> 500 min
Cc1c(Cc2ccc(Cl)c(O[C@@H](C)C(=O)O)c2)c2ccc(C(=O)N[C@@H](C)c3cc(F)cc(C(C)(C)C)c3)cc2n1C,liver microsomes,,> 60 min
C/C(=N\OCCN1CCCC1)c1ccc(C(F)(F)F)cc1,liver microsomes,,34.4 min

# Repeated from above:
SMILES,system,setting,half-life
CC(C)C[C@H](NC(=O)[C@@H]1CCCN1C(=O)[C@@H]1CCCN1C(=O)[C@H](CC(N)=O)NC(=O)[C@@H](N)Cc1ccc(Cl)c(Cl)c1)C(=O)N[C@@H](Cc1c[nH]cn1)C(=O)N[C@@H](CO)C(=O)N[C@H](C(=O)N[C@@H](C)C(=O)O)[C@@H](C)OP(=O)(O)O,liver microsomes,"1 µM, pH 7.4",15 min
O=C(c1ccnc(N2Cc3cnn(Cc4ccc(F)cc4)c3C2)n1)N1CCOCC1,liver microsomes,,59 min
O=C(O)Cc1ccccc1Nc1c(Cl)cccc1Cl,hepatocytes,1 µM,267 min
